{"data": "Assay results from different studies", "note": "Compare with care: the assays were run in different laboratories. Values joined by “and” are separate records of one study, mostly repeats; a detail may differ. ± gives the spread as reported."}
{"SMILES": "COc1ccc2c(c1)CN(C(=O)CCN1CCC(Cc3ccccc3)CC1)CC[S@@+]2[O-]", "assay": "telemetry", "test system": "conscious dog", "setting": "intravenous, 8 mg/kg, 1 h", "measurement": "heart rate", "value": "123 ± 46 beats/min"}
{"SMILES": "COc1cccc(OC)c1-c1cc(C(=O)NC2(C(=O)O)C3CC4CC(C3)CC2C4)nn1-c1ccc(C(=O)N(C)CCCN(C)CCCN(C)C(=O)CN2CCN(CC(=O)[O-])CCN(CC(=O)[O-])CCN(CC(=O)[O-])CC2)cc1C(C)C.[177Lu+3] (centres unmarked)", "test system": "mouse, HT-29 xenograft", "setting": "72 h post injection, biodistribution", "how to read": "relative to: tumour over lung uptake", "measurement": "tumour-to-lung ratio", "value": 38.1}
{"SMILES": "C[Si](C)(C)O[Si](C)(C)C", "setting": "0.7 to 42 µg/L, 12.4 °C", "measurement": "log KOA", "value": 2.94}
{"SMILES": "CCN1CCN(Cc2ccc(NC(=O)c3ccc(C)c(NC(=O)c4cncc(-c5cccs5)c4)c3)cc2C(F)(F)F)CC1", "assay": "LC-MS/MS", "test system": "C57BL/6 mouse, plasma", "setting": "intraperitoneal, 20 mg/kg single dose, 4 h", "measurement": "plasma concentration", "value": "204 ng/mL and 198 ng/mL and 206 ng/mL"}
{"SMILES": "C[C@@H](O)[C@H](NC(=O)c1ccc(C#Cc2ccccc2)cc1)C(=O)NCC1(C)NC(=O)NC1=O (some centres unmarked)", "test system": "aqueous buffer", "setting": "pH 7.4", "measurement": "thermodynamic solubility", "value": "513 µM"}
{"SMILES": "[18F]c1ccc(-c2ccc3c(c2)[nH]c2ccncc23)cn1", "assay": "ex vivo biodistribution", "test system": "B6SJL mouse, normal, blood", "setting": "intravenous, 30 min", "measurement": "SUV", "value": "0.289 ± 0.122"}
{"SMILES": "c1csc(CNc2cc[nH]n2)c1", "assay": "DNA damage, alkaline comet", "test system": "Hsd:ICR(CD-1) mice, male, liver", "setting": "oral gavage, 500 mg/kg/day, 3 days", "measurement": "tail DNA (mean)", "value": "1.4%"}
{"SMILES": "CN(C(=O)n1cnc(-c2ccc[n+]([O-])c2)c1)[C@H]1CC[C@H](O)CC1", "test system": "Wistar rat, medulla oblongata", "setting": "oral, 10 mg/kg/day of BIA 10-2474, 48 h, repeated 5 days", "measurement": "concentration", "value": "9 ± 7 ng/g"}
{"SMILES": "CC/C=C\\C/C=C\\C/C=C\\C/C=C\\C/C=C\\C/C=C\\CCC(=O)O.Cc1cc(/C=C/C#N)cc(C)c1Nc1ccnc(Nc2ccc(C#N)cc2)n1", "test system": "Peceol", "measurement": "kinetic solubility", "value": "< 50000 µg/mL"}
{"SMILES": "COc1c(C)c2c(c(O[C@@H]3O[C@H](C(=O)O)[C@@H](O)[C@H](O)[C@H]3O)c1C/C=C(\\C)CCC(=O)O)C(=O)OC2", "test system": "healthy subjects, plasma", "setting": "oral, 1 g mycophenolate mofetil", "measurement": "half-life, mean", "value": "13.3 h"}
{"SMILES": "CCc1c(-c2ccccc2)c(-c2ccccc2)nn1-c1ccccc1-c1cccc(OCC(=O)O)c1", "test system": "Sprague-Dawley rat, large intestine", "setting": "oral, 10 mg/kg, 4 h", "measurement": "concentration", "value": "1520 ng/g and 1950 ng/g"}
{"SMILES": "COc1ccc([C@@H](O)c2cc(-c3ncnc4cc(N5CCOCC5)ccc34)c(F)cc2Cl)nn1", "test system": "locally advanced rectal cancer patients", "setting": "50 mg, added: capecitabine and radiotherapy", "measurement": "fatigue TEAE incidence", "value": "100%"}
{"SMILES": "Cc1ccc(Sc2ccccc2N2CCNCC2)c(C)c1", "assay": "refers to: Somnolence", "test system": "healthy adult men", "setting": "oral, 20 mg daily, 12 days", "measurement": "participants with TEAE", "value": "0%"}
{"SMILES": "COc1cc2c3c(n(CCCN4CCOCC4)c(=O)c2cc1OC)-c1cc2c(cc1C3=O)OCO2", "test system": "beagle dog, female, plasma", "setting": "oral, 860 mg/m^2, gelatin capsule", "measurement": "Vz/F", "value": "1690 L/m² and 32500 L/m²"}
{"SMILES": "Cc1ccc([C@@H]2O[C@H](CO)[C@@H](O)[C@H](O)[C@H]2O)cc1Cc1ccc(-c2ccc(F)cc2)s1", "test system": "Japanese type 2 diabetes patients", "setting": "400 mg, day 3, 24 h urine collection", "how to read": "relative to: baseline", "measurement": "urinary potassium excretion change", "value": "-3.38 mEq"}
{"SMILES": "N#CCNC(=O)c1ccc(-c2ccnc(Nc3ccc(N4CCOCC4)cc3)n2)cc1", "test system": "healthy volunteers, plasma", "setting": "oral, dose not given, added: rifampin multiple-dose", "how to read": "relative to: compound alone", "measurement": "AUCinf decrease", "value": "15%"}
{"SMILES": "Cc1c(-c2ccc(N3CCc4cccc(C(=O)Nc5nc6ccccc6s5)c4C3)nc2C(=O)O)cnn1CC12CC3(C)CC(C)(C1)CC(OCCNCC[C@H](O)CO)(C3)C2", "test system": "anaesthetized male beagle dog", "setting": "iv infusion, 0.3 mg/kg/min, 120 min", "measurement": "plasma concentration", "value": "1.35 ng/mL"}
{"SMILES": "Cn1cc(Nc2nccc(-c3ccc4c(c3)CN(C3COC3)CC[C@H]4NC(=O)c3cn(C(C)(C)C)nn3)n2)cn1", "test system": "human, whole blood", "setting": "150 mg twice daily, day 7", "how to read": "relative to: pre-dose baseline", "measurement": "class-switched memory B cell change", "value": "104%"}
{"SMILES": "N#Cc1ccc2c(c1)[C@H]1CCCN(C(=O)c3ccc4[nH]cnc4c3)[C@H]1C2", "test system": "human, male", "setting": "20 mg, end of trial", "measurement": "androstenedione level", "value": "9.5 nmol/L"}
{"SMILES": "O=C(Nc1nc2cccc(-c3ccc(CN4CCS(=O)(=O)CC4)cc3)n2n1)C1CC1", "assay": "refers to: pharyngitis", "test system": "human rheumatoid arthritis patients", "setting": "oral, 150 mg once daily, 4 weeks, regardless of relatedness", "measurement": "treatment-emergent adverse events", "value": "0%"}
{"SMILES": "CCCCC[C@H]1CC[C@H](c2ccc(OCC)c(F)c2F)CC1", "test system": "rat, fetus", "setting": "10 ng/mL in perfusate, low dose, mixture of 21 LCMs", "measurement": "median fetal accumulation", "value": "1.04 ng/g"}
{"SMILES": "CNC(=O)c1ccc(-c2cnc3ncc(Cc4ccc5ncccc5c4)n3n2)cc1F", "assay": "refers to: Fatigue, all grades", "test system": "cancer patients", "setting": "oral, 600 mg twice daily, expansion cohort, any causality", "measurement": "patients with adverse event", "value": "34%"}
{"SMILES": "C[C@H]1O[C@@H](O[C@H]2[C@@H](O)C[C@H](O[C@H]3[C@@H](O)C[C@H](O[C@H]4CC[C@@]5(C)[C@H](CC[C@@H]6[C@@H]5C[C@@H](O)[C@]5(C)[C@@H](C7=CC(=O)OC7)CC[C@]65O)C4)O[C@@H]3C)O[C@@H]2C)C[C@H](O)[C@@H]1O", "assay": "refers to: haematoma", "test system": "healthy men", "setting": "oral, dose not given, 8 days, treatment-emergent, crossover trial", "measurement": "subjects with adverse event", "value": "0%"}
{"SMILES": "CC(C)c1nc(N(C)S(C)(=O)=O)nc(-c2ccc(F)cc2)c1/C=C/[C@@H](O)C[C@@H](O)CC(=O)O", "assay": "refers to: Dizziness", "test system": "human", "setting": "oral, 10 mg", "measurement": "participants with TEAE", "value": "0%"}
{"SMILES": "CCn1ccc2nc(-c3ccccn3)nc(N3CCC(c4ccccn4)C3)c21 (centres unmarked)", "test system": "Japanese Pharmacopoeia disintegration test solution 2", "setting": "pH 6.8", "measurement": "kinetic solubility", "value": "88 µg/mL"}
{"SMILES": "CCN1/C(=C/C(C)=O)Sc2ccc(F)cc21", "test system": "cynomolgus monkey", "setting": "oral, 30 mg/kg, 4 h post-dose", "measurement": "QTc interval (Bazett)", "value": "329 ± 11 ms"}
{"SMILES": "CCc1cc(C(=O)NC)c2nccc(N3CCc4c(cc(Cn5ccnc5)cc4-c4cn(C)nc4C(F)(F)F)C3=O)c2c1", "test system": "Sprague Dawley rats", "setting": "oral, 100 mg/kg twice daily, 7 days", "measurement": "serum TBA level", "value": "19.8 ± 12.7 µmol/L"}
{"SMILES": "Cc1ncc(CO)c(C(=O)O)c1O", "test system": "Japanese men, plasma", "setting": "dose not given", "measurement": "AUC(0-12h)", "value": "28.2 ± 7.8 ng·h/mL"}
{"SMILES": "COc1cc2nccc(Oc3ccc(NC(=O)c4cc5c(n(-c6ccccc6)c4=O)CCCC5=O)nc3)c2cc1OC", "test system": "human, relapsed/refractory AML", "setting": "oral, 3 mg once daily, grade ≥3, any causality", "measurement": "patients with Klebsiella sepsis", "value": "10%"}
{"SMILES": "COc1cc2[nH]c(C)c(-c3ccc(N(C)C)cc3)c(=O)c2cc1Cl", "setting": "pH 7.4", "measurement": "kinetic solubility", "value": "2 to 6 µM"}
{"SMILES": "COc1cc(Nc2ncc3c(n2)-c2ccc(Cl)cc2C(c2c(F)cccc2OC)=NC3)ccc1C(=O)O", "assay": "refers to: acneiform rash, grade 3", "test system": "cancer patients, phase 1/2", "setting": "oral, dose not given, added: pembrolizumab", "measurement": "patients with adverse event", "value": "4%"}
{"SMILES": "COc1cc2[nH]c(C)c(-c3ccc(OC(F)(F)F)cc3)c(=O)c2cc1Cl", "setting": "pH 7.4", "measurement": "kinetic solubility", "value": "< 2 µM"}
{"SMILES": "CCOc1nc2cccc(C(=O)O)c2n1Cc1ccc(-c2ccccc2-c2nnn[nH]2)cc1", "assay": "shake-flask", "test system": "Cremophor ELP", "setting": "37 °C, water up to 0.5% w/w", "measurement": "thermodynamic solubility", "value": "4.93 ± 0.31 mg/g"}
{"SMILES": "COc1cc(C(=O)NC2CCN(C)CC2)c(F)cc1Nc1ncc(C(F)(F)F)c(Oc2cccc3c2C(=O)N(C)C3)n1", "test system": "human patients, plasma", "setting": "oral, 25 mg once daily repeated, geometric mean", "measurement": "dose-normalised Cmax at steady state", "value": "16.2 nmol/L per mg"}
{"SMILES": "CNC(=O)c1ccc(-c2cnc3ncc(Cc4ccc5ncccc5c4)n3n2)cc1F", "test system": "Japanese patients", "setting": "oral, 400 mg twice daily, any grade", "measurement": "Vertigo patients", "value": "2%"}
{"note": "Repeated from above:"}
{"SMILES": "Cc1c(-c2ccc(N3CCc4cccc(C(=O)Nc5nc6ccccc6s5)c4C3)nc2C(=O)O)cnn1CC12CC3(C)CC(C)(C1)CC(OCCNCC[C@H](O)CO)(C3)C2", "test system": "anaesthetized male beagle dog", "setting": "iv infusion, 0.3 mg/kg/min, 120 min", "measurement": "plasma concentration", "value": "1.35 ng/mL"}
{"SMILES": "CC(C)c1nc(N(C)S(C)(=O)=O)nc(-c2ccc(F)cc2)c1/C=C/[C@@H](O)C[C@@H](O)CC(=O)O", "assay": "refers to: Dizziness", "test system": "human", "setting": "oral, 10 mg", "measurement": "participants with TEAE", "value": "0%"}
{"SMILES": "COc1c(C)c2c(c(O[C@@H]3O[C@H](C(=O)O)[C@@H](O)[C@H](O)[C@H]3O)c1C/C=C(\\C)CCC(=O)O)C(=O)OC2", "test system": "healthy subjects, plasma", "setting": "oral, 1 g mycophenolate mofetil", "measurement": "half-life, mean", "value": "13.3 h"}
{"SMILES": "COc1cc(Nc2ncc3c(n2)-c2ccc(Cl)cc2C(c2c(F)cccc2OC)=NC3)ccc1C(=O)O", "assay": "refers to: acneiform rash, grade 3", "test system": "cancer patients, phase 1/2", "setting": "oral, dose not given, added: pembrolizumab", "measurement": "patients with adverse event", "value": "4%"}
